Measurements gathered from unrelated publications.
Protocols differ between the studies behind these lines.
UCHL1: Ubiquitin carboxyl-terminal hydrolase isozyme L1 (UCHL1, Homo sapiens, UniProt P09936)
UniProt P09936, sequence (whole entry, looked up): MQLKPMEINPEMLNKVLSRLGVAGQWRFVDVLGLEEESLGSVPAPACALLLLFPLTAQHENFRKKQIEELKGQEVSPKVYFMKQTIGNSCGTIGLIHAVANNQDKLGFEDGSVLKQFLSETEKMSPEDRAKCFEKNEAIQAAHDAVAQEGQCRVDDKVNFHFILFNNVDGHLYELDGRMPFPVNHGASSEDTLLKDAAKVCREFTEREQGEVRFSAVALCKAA

`CCN1CCN(Cc2ccc(Nc3ncc(F)c(-c4cc(F)c5nc6n(c5c4)[C@H](C)CCC6)n3)nc2)CC1` has a Tmax of 3.98 h (human, plasma; 100 mg multiple dosing, median).
With `CC#Cc1cncc(-c2ccc3c(c2)[C@@]2(N=C(C)C(N)=N2)[C@]2(CC[C@H](OC)CC2)C3)c1` the Tmax was 2 h (beagle dogs, both sexes, plasma; oral, 0.48, 3.4 or 24 µmol/kg daily, 2 weeks).
With `Cl.[2H]C([2H])([2H])CC(=O)c1cnc(NC(=O)C2CC2)cc1Nc1cccc(-c2ncn(C([2H])([2H])[2H])n2)c1OC` the Tmax was 4 h (human, fed, plasma; oral, 25 mg, single dose, liquid formulation).
With `CCn1cc(C(=O)N2CCOCC2)c(=O)c2cc(NC3Cc4ccccc4C3)cnc21` the Tmax was 2.5 h (human, fed; oral suspension, 1200 mg/day twice daily, day 8, median).
`N#CC(=Cc1csc(C2CC2)n1)C(=O)Nc1ccccc1C(=O)O` has a labelling of 33.1% (UCHL1; covalent, intact protein LC-MS; 12.5 µM).
With `COc1ccc(C[C@@H](C)[C@@H](C)Cc2ccc(OC)c(OC)c2)cc1OC` the Tmax was 1 h (beagle dog female, plasma; oral, 300 mg/kg/day, day 28, median).
`Cn1c(C(F)(F)F)cc(=O)n(-c2cc(Oc3cccnc3OCC(=O)O)c(Cl)cc2F)c1=O` has a Tmax of 3.5 h (beagle dog, female, plasma; oral capsule, 100 mg/kg/day epyrifenacil, day 1, 90-day study).
`C=CC(=O)NC1CCN(c2ncc3ncnc(Nc4ccc(Oc5ccc6c(c5)ncn6C)c(C)c4)c3n2)CC1` gave a Tmax of 4 h (male beagle dog, plasma; oral, 3 mg/kg, pentagastrin pretreatment).
`Cc1nc(-c2cnc(NC(C)C)n(C)c2=O)ccc1Oc1ccnc(-c2cnn(C)c2)c1` gave a Tmax of 1.33 h (Beagle dog, male, plasma; oral, 30 mg/kg, crossover study, mean).
`N#CC(=Cc1cc([N+](=O)[O-])ccc1Cl)C(N)=O` has a labelling of 31.5% (UCHL1; covalent, intact protein LC-MS; 12.5 µM).
For `O=C(O)CCC(=O)O.[2H]C([2H])([2H])Oc1cc(C)c2[nH]ccc2c1CN1CC[C@@H](C2CC2)C[C@H]1c1ccc(C(=O)O)cc1`, the Tmax was 4 h (LC-MS/MS, median; human, plasma; 600 mg, single dose, fasting).

Excerpt of the above:
`Cn1c(C(F)(F)F)cc(=O)n(-c2cc(Oc3cccnc3OCC(=O)O)c(Cl)cc2F)c1=O` has a Tmax of 3.5 h (beagle dog, female, plasma; oral capsule, 100 mg/kg/day epyrifenacil, day 1, 90-day study).
